Measurements of several laboratories.
Several values in a cell are separate wells, animals, samples, runs or records. Numbers after ± are the reported error.
ADRA2B: Alpha-2B adrenergic receptor (ADRA2B, Homo sapiens, UniProt P18089)
Chain of UniProt P18089 (whole entry, looked up): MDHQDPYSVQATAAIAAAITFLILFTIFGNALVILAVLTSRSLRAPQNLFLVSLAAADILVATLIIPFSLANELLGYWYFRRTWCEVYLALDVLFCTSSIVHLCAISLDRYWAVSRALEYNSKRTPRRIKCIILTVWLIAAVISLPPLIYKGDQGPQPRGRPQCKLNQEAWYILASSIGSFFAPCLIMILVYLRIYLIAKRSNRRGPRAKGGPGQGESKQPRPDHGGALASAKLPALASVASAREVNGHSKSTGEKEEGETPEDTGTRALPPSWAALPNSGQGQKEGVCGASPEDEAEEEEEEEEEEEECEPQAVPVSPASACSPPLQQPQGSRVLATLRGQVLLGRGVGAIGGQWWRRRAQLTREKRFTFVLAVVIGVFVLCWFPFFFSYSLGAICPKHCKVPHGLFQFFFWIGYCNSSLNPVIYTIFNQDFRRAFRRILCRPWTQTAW
rep main protease: Replicase polyprotein 1ab, main protease (rep, Porcine epidemic diarrhea virus, UniProt P0C6Y4)
Chain of UniProt Q09472 (whole entry, looked up): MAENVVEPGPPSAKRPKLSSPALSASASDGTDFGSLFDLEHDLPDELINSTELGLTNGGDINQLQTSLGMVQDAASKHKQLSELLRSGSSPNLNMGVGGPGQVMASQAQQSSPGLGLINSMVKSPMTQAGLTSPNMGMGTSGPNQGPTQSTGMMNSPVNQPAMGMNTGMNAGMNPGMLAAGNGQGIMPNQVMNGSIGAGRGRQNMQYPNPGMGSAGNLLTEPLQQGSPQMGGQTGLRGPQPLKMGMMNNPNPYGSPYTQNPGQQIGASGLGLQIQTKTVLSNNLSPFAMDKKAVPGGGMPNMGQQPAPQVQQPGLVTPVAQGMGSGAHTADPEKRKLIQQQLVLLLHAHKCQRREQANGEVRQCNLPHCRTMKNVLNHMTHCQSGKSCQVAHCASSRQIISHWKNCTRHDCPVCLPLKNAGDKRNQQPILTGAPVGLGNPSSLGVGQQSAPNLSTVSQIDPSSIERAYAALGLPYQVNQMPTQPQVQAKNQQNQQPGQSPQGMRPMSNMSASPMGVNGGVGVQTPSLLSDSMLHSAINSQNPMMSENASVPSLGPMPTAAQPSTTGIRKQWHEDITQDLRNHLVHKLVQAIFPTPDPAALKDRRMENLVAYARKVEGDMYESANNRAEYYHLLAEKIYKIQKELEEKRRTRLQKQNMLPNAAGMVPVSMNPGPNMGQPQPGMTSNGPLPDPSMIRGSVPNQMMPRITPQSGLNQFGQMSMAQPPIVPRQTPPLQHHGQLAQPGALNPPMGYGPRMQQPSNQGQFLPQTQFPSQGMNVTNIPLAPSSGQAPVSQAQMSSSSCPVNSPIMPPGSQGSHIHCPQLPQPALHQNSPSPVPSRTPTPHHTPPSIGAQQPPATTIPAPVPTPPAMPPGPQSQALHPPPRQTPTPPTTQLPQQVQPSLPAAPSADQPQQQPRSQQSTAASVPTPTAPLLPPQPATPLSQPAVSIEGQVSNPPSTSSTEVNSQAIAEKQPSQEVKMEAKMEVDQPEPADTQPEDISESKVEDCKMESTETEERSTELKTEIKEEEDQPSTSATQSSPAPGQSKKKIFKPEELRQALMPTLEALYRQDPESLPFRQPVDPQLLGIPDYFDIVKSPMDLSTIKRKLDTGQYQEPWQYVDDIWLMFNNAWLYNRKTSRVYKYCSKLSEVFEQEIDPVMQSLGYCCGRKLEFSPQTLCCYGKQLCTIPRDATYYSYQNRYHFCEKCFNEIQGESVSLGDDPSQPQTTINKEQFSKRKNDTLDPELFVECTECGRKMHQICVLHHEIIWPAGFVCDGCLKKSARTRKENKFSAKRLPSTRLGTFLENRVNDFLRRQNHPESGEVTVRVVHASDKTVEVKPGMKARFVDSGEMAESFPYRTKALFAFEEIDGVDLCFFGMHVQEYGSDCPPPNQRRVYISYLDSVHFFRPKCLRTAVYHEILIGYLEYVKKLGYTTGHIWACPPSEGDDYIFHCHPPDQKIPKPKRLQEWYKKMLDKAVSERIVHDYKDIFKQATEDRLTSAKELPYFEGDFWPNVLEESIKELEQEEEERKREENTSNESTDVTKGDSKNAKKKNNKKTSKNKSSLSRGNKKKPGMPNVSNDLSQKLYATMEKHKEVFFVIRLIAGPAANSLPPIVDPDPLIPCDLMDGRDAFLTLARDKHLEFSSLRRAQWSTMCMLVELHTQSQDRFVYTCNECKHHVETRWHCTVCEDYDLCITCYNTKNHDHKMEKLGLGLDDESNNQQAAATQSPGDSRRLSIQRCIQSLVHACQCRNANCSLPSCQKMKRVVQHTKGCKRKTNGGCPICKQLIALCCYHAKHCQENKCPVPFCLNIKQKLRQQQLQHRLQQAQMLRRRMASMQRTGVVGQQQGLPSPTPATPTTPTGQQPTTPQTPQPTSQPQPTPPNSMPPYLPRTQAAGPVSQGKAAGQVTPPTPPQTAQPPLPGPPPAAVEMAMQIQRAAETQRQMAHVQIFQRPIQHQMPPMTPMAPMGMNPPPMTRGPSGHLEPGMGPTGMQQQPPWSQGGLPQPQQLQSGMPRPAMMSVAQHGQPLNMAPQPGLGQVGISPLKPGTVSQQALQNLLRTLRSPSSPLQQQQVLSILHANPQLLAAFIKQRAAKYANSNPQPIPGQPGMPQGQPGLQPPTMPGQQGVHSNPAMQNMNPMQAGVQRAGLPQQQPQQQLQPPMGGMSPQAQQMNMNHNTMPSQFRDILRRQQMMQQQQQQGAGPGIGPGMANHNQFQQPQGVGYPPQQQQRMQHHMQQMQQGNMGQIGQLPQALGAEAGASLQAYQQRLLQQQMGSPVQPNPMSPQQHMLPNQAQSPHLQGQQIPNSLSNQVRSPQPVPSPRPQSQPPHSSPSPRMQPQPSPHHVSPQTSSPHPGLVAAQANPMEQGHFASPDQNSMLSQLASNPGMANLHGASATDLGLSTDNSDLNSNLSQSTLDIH
Chain of UniProt Q13133 (whole entry, looked up): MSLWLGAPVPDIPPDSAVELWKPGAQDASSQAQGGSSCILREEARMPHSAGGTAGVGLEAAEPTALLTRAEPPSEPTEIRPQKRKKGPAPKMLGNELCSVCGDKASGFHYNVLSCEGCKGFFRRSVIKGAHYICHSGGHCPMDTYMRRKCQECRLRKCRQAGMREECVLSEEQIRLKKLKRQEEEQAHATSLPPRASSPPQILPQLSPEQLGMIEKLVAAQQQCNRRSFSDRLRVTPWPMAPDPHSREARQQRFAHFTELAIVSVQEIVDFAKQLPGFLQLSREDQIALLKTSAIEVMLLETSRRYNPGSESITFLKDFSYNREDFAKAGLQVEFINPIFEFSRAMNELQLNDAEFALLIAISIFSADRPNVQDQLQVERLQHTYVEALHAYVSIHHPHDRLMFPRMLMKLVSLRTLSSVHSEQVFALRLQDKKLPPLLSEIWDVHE
Chain of UniProt Q13188 (whole entry, looked up): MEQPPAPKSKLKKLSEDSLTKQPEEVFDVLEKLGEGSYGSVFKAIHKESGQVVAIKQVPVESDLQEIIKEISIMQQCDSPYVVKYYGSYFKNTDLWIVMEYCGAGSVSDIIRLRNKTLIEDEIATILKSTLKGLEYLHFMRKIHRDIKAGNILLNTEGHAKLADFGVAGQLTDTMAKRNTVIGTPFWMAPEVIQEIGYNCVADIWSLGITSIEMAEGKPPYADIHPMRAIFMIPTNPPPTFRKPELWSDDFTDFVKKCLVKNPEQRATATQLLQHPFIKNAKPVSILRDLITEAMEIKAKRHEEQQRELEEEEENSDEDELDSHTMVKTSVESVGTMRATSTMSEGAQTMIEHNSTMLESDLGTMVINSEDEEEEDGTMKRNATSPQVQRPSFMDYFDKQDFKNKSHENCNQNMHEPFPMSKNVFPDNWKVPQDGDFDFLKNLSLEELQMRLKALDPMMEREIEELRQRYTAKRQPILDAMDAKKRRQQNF
Chain of UniProt O75716 (whole entry, looked up): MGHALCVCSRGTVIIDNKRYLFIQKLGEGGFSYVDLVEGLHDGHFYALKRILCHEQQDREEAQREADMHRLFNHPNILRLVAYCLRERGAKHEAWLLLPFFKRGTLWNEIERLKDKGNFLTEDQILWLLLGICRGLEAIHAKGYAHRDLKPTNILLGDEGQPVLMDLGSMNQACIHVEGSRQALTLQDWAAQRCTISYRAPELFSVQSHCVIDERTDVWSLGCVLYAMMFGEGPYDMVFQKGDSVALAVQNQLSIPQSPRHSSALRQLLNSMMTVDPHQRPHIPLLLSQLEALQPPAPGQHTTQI
Chain of UniProt Q8N884 (whole entry, looked up): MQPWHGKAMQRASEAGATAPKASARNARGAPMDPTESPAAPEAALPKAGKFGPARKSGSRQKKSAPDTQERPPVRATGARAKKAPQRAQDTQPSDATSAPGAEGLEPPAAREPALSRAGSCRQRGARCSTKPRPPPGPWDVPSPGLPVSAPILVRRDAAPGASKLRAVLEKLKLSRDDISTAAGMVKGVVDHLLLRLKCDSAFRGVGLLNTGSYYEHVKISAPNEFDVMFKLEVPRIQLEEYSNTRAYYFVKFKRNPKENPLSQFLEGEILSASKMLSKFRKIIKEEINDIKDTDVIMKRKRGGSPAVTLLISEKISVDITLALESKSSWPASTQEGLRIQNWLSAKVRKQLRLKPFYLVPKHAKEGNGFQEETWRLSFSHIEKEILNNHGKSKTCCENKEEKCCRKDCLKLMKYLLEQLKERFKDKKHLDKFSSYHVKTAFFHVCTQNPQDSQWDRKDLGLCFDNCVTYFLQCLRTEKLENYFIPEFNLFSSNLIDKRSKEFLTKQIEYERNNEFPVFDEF
Chain of UniProt P50613 (whole entry, looked up): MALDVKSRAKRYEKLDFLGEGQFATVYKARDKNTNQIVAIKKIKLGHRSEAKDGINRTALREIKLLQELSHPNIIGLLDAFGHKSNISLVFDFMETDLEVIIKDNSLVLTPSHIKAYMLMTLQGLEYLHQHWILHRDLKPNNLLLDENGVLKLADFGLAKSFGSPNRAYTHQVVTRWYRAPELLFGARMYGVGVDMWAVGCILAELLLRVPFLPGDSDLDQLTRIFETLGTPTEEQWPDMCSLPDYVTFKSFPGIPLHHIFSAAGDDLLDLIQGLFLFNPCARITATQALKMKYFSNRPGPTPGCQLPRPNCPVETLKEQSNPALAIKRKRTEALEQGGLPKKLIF

SMILES	target	assay	test system	conditions	inhibition
O=C(NO)c1ccc(CN2CCCCc3ccccc32)c(F)c1	ADRA2B	radioligand binding, radioligand displacement	–	10 µM, mean of replicates	29.3%
CCN1/C(=C/C(C)=O)Sc2ccc(F)cc21	ADRA2B	–	–	10 µM	91.6%
CCOc1cc(-c2nncn2C)ccc1Nc1ncc2cc(C)nc(NCC(C)(C)C)c2n1	5'-AMP-activated protein kinase catalytic subunit alpha-2, with beta1 gamma1 (PRKAA2, Homo sapiens, UniProt P54646)	kinase activity, Z'-LYTE	–	1 µM	< 15%
CNc1cc(Oc2cc(C(=O)Nc3cc(N4CCN(C)CC4)cc(C(F)(F)F)c3)ccc2C)ncn1	MASTL (Homo sapiens, UniProt Q96GX5)	kinase probe binding, inhibitor, KiNativ	Huh-7	1 µM	-31.4%
O=C(CSc1nc2ncc(C3CC3)nc2c(=O)n1CCc1ccccc1)Nc1nccs1	Phosphatidylinositol 4-phosphate 3-kinase C2 domain-containing subunit alpha (Pik3c2a, Mus musculus, UniProt Q61194)	enzyme activity, inhibitor	–	concentration not given, with: ATP 10 µM	inactive
COc1cc(CNC(=O)c2ccno2)cc(Br)c1OC	rep main protease	enzyme activity, inhibitor, FRET	–	10 µM	< 0%
COc1ccc(F)cc1C(=O)NCc1ccc(-c2nn([C@@H](C)C(F)(F)F)c(N)c2C(N)=O)cc1	ULK3 (Homo sapiens, UniProt Q6PHR2)	probe binding, competitive chemoproteomics	human PBMCs	1 µM	15.2%
Cc1ccc(CNC(=O)c2ccccc2)cc1C	rep main protease	enzyme activity, inhibitor, FRET	–	10 µM	< 0%
Cc1nn(-c2nc3c(F)cc(F)cc3s2)c(O)c1C(c1ccccc1C(=O)O)c1c(C)nn(-c2nc3c(F)cc(F)cc3s2)c1O	CGAS (Homo sapiens, UniProt Q8N884)	enzyme activity, inhibitor, pyrophosphatase-coupled	–	25 µM, 1.5 h, with: HT-DNA	54.5%
CC[C@@H]1[C@H](F)C(=O)N[C@@H]1COc1nccc2cc(C(N)=O)c(OC)cc12	STK3 (Homo sapiens, UniProt Q13188)	ATP-site probe binding, ActivX profiling, item: MST2	THP-1 cell lysate	0.01 mM, Lys1 site	-6.8%
COc1cc(CNC(=O)c2cccc(C#N)c2)cc(Br)c1OC	rep main protease	enzyme activity, inhibitor, FRET	–	10 µM	< 0%
COc1cc(-c2cc(C(C)=O)n3ccccc23)cc(OC)c1Cn1ccnc1	EP300 (Homo sapiens, UniProt Q09472)	–	–	1 µM	25.7%
COc1cc(C(=O)NS(=O)(=O)c2ccccc2C)ccc1Cc1cn(C)c2ccc(NC(=O)OC3CCCC3)cc12	Volume-regulated anion channel subunit LRRC8C, part LRRC8A IL1 chimera (LRRC8C, Homo sapiens, UniProt Q8TDW0, Y126F)	ion current, inhibitor, whole-cell patch clamp	HCT LRRC8-/- cells	10 µM, +100 mV	93.8% and 97.2% and 81% and 96.2% and 87.4%
C/C=C1/CN2CC[C@]34C(=C(C(=O)OC)[C@H]1C[C@H]23)Nc1ccc(Br)cc14	ADRA1D (Homo sapiens, UniProt P25100)	–	–	10 µM	< 50%
COc1cc(CNC(=O)c2ccccc2)cc(Br)c1OC	rep main protease	enzyme activity, inhibitor, FRET	–	10 µM	< 0%
Cc1cc(-c2ccnc3[nH]cc(F)c23)cc(F)c1[C@@]1(O)[C@H](C)CN(C2CCS(=O)(=O)CC2)C[C@@H]1C	STK16 (Homo sapiens, UniProt O75716)	ATP probe binding, KiNativ, item: Lys2 site	HEK293T cell lysate	1 µM	16.3%
CN1CCN(c2cc(-c3ccncc3)c(-c3ccc4ccccc4c3)nn2)CC1	CXCR5 (Homo sapiens, UniProt P32302)	antagonist, FLIPR	–	10 µM	3.5%
Cc1c(O)cc2oc3c(c(=O)c2c1O)-c1ccccc1OC3O (stereo not drawn)	CDK7 (Homo sapiens, UniProt P50613)	enzyme activity, inhibitor	–	10 µM	> 50%
OO	Histone acetyltransferase p300, BHC core (EP300, Homo sapiens, UniProt Q09472)	enzyme activity	–	1 mM, with: p300 BHC, with DTT	12 ± 5%
COc1cc(CNC(=O)c2cccs2)cc(Br)c1OC	rep main protease	enzyme activity, inhibitor, FRET	–	10 µM	< 0%
COc1ccc(C(=O)Nc2ccc(N3CCCN(c4ccccn4)CC3)cc2)cc1	Alpha-synuclein, fibrils (SNCA, Homo sapiens, UniProt P37840)	radioligand binding	–	1 µM, 50 nM protein, with: [3H]BF2846 4 nM	inhibited
CC(C)(O)c1cn(-c2ccc(-c3cccc(S(C)(=O)=O)c3)cc2)c(C(C)(C)c2ccccc2Cl)n1	NR1H3 (Homo sapiens, UniProt Q13133)	reporter gene, antagonist	CV-1	concentration not given, with: pan agonist A 60 nM	62%
CCc1oc2ccccc2c1C(=O)c1cc(Br)c(O)c(Br)c1	SLC22A12 (Homo sapiens, UniProt Q96S37, S238A)	urate uptake	HEK293T	0.5 µM, 10 min, 37 °C, with: 200 µM [14C]urate	50.7% and 48.6% and 44% and 50.1% and 44.6% and 47.4%
O=C(Nc1cccc2c(=O)cc(-c3nnn[nH]3)oc12)c1ccc(OCCCCc2ccccc2)cc1	Volume-regulated anion channel subunit LRRC8C, part LRRC8A IL1 chimera (LRRC8C, Homo sapiens, UniProt Q8TDW0, E6A)	ion current, inhibitor, whole-cell patch clamp	HCT116 LRRC8 knockout, transfected	3 µM, at -100 mV	81.9%

Repeated from above:
SMILES	target	assay	test system	conditions	inhibition
Cc1c(O)cc2oc3c(c(=O)c2c1O)-c1ccccc1OC3O (stereo not drawn)	CDK7 (Homo sapiens, UniProt P50613)	enzyme activity, inhibitor	–	10 µM	> 50%
OO	Histone acetyltransferase p300, BHC core (EP300, Homo sapiens, UniProt Q09472)	enzyme activity	–	1 mM, with: p300 BHC, with DTT	12 ± 5%
COc1cc(CNC(=O)c2cccs2)cc(Br)c1OC	rep main protease	enzyme activity, inhibitor, FRET	–	10 µM	< 0%
